Measured values collected from several papers.
Protocols differ between the studies behind these lines. Values joined by “and” are separate records of one study, mostly repeats; a detail may differ.
Read-out: metabolic stability

CC(C)CCCn1c(OC2CCN(C(=O)C3CC3)CC2)nc2c1c(=O)n(C)c(=O)n2C
half-life (rat, liver microsomes): 3 min

Cc1ccc(N2C(=O)c3ccccc3NC23C(=O)N(C)c2ccc(Br)cc23)cc1 (centres unmarked)
half-life (rat, hepatocytes): 5.2 min

CNC(=O)c1ccc(Oc2nc3c(c(=O)n(C)c(=O)n3C)n2CCC(C)C)cc1
half-life (rat, liver microsomes): > 30 min

O=c1c(-c2cnn(-c3ccc(Cl)cc3)c2)c(C(F)(F)F)oc2c(O)c(O)ccc12
half-life (rat, liver microsomes): > 300 min

Nc1ccn(C[C@@H](CO)OCP(=O)(O)OCCCS(=O)(=O)CCCCCCCCCCC2CCC2)c(=O)n1
half-life (rat, hepatocytes; 1 µM): 62.4 min

CCC(CC)[C@H](NC(C)=O)[C@@H]1[C@H](O)[C@@H](C(=O)N[C@H](C(=O)O)[C@@H](C)CC)C[C@H]1NC(=N)N
half-life (Sprague-Dawley rat, intestine; 100 µg/mL, pH 7.4): 1700 min

CC(C)CCn1c(OC2CCN(C(=O)C3CC3)CC2)nc2c1c(=O)n(C)c(=O)n2C
half-life (rat, liver microsomes): 17 min

CC1(CCCCCCCCCCCCCCOCCCOP(=O)(O)CO[C@H](CO)Cn2ccc(N)nc2=O)COC1
half-life (rat, hepatocytes; 1 µM): 9.01 min

Cc1cc2c(cc1O)C=C1C=CC(=O)C(C)(C)[C@H]1CC2
half-life (rat, liver microsomes; 1 mM, pH 7.4): 2.38 min

CC1(CCCCCCCCCCCCS(=O)(=O)CCCOP(=O)(O)CO[C@H](CO)Cn2ccc(N)nc2=O)COC1
half-life (rat, hepatocytes; 1 µM): 41.6 min

CC(C)CCCn1c(CN2CCN(C(=O)C3CC3)CC2)nc2c1c(=O)n(C)c(=O)n2C
half-life (rat, liver microsomes): 5 min

O=C(Cc1ccccc1)Nc1nc2ccccc2n1Cc1ccccc1
half-life (rat, liver microsomes): 12 min and 12.2 min

CCOC(=O)N1CCC(Oc2nc3c(c(=O)n(C)c(=O)n3C)n2CCC(C)C)CC1
half-life (rat, liver microsomes): 11 min

CN(C)C(=O)c1cncc(N2Cc3cnn(Cc4ccc(F)cc4)c3C2)n1
half-life (rat, liver microsomes): 37 min

Nc1ccn(C[C@@H](CO)OCP(=O)(O)OCCCS(=O)(=O)CCCCCCCCCCCCCC2CCC2)c(=O)n1
half-life (rat, hepatocytes; 1 µM): 202 min

CN(C)C(=O)c1ccnc(N2Cc3cn(Cc4ccc(F)cc4)nc3C2)n1
half-life (rat, liver microsomes): 158 min

COC(=O)c1ccc(/C=N/NS(=O)(=O)c2ccc(OC)c(OC)c2)cc1
half-life (male Wistar rat, liver microsomes; 10 µM, pH 7.4): 4.3 min

CC(C)CCn1c(OC2CN(C(=O)C3CC3)C2)nc2c1c(=O)n(C)c(=O)n2C
half-life (rat, liver microsomes): > 30 min

CCNC(=O)[C@H](CC(C)C)NC(=O)[C@H](Cc1c[nH]cn1)NC(=O)CNC(=O)[C@@H](NC(=O)[C@H](C)NC(=O)[C@H](Cc1c[nH]c2ccccc12)NC(=O)[C@H](CCC(N)=O)NC(=O)[C@H](N)Cc1ccccc1)C(C)C
half-life (rat, hepatocytes): 32 min

Nc1nc(Cl)nc2c1ncn2Cc1cc(OCC(F)F)cc(OC(F)F)c1
half-life (rat, liver microsomes): 169 min
